Assay results gathered from unrelated publications.
A part holds a random share of what one study measured.
Sequence of UniProt P21127 (whole entry, looked up): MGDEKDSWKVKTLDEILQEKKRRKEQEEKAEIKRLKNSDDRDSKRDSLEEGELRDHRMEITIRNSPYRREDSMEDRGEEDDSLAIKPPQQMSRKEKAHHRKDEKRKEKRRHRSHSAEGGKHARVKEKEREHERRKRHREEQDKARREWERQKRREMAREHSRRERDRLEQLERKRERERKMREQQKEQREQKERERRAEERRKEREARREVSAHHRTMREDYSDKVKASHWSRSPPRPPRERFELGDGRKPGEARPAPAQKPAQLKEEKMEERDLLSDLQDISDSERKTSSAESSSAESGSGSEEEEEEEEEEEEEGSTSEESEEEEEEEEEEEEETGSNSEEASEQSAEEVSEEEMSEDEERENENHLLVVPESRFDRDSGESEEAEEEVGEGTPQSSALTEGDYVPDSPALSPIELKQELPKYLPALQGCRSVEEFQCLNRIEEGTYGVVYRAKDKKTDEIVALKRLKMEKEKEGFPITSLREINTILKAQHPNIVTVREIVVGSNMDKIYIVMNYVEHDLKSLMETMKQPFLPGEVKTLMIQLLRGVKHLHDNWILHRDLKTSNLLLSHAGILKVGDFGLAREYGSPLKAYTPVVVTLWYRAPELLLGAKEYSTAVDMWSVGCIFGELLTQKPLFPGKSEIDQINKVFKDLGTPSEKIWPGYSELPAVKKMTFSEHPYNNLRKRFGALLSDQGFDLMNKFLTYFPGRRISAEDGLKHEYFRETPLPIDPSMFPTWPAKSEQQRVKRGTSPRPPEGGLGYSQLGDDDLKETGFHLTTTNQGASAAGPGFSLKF
Sequence of UniProt O94921 (whole entry, looked up): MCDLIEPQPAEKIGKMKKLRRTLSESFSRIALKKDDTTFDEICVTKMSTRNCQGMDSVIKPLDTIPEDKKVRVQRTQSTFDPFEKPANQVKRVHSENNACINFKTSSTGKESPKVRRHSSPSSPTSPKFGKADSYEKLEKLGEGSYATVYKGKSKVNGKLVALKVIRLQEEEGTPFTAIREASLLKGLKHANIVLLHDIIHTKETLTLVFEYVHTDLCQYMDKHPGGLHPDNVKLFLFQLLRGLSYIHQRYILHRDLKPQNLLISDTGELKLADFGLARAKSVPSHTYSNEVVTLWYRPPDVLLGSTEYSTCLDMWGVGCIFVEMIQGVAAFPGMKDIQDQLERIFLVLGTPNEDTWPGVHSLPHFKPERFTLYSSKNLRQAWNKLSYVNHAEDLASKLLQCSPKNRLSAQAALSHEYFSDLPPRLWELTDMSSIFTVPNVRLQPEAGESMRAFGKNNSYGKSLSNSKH
Sequence of UniProt Q9UBF8 (whole entry, looked up): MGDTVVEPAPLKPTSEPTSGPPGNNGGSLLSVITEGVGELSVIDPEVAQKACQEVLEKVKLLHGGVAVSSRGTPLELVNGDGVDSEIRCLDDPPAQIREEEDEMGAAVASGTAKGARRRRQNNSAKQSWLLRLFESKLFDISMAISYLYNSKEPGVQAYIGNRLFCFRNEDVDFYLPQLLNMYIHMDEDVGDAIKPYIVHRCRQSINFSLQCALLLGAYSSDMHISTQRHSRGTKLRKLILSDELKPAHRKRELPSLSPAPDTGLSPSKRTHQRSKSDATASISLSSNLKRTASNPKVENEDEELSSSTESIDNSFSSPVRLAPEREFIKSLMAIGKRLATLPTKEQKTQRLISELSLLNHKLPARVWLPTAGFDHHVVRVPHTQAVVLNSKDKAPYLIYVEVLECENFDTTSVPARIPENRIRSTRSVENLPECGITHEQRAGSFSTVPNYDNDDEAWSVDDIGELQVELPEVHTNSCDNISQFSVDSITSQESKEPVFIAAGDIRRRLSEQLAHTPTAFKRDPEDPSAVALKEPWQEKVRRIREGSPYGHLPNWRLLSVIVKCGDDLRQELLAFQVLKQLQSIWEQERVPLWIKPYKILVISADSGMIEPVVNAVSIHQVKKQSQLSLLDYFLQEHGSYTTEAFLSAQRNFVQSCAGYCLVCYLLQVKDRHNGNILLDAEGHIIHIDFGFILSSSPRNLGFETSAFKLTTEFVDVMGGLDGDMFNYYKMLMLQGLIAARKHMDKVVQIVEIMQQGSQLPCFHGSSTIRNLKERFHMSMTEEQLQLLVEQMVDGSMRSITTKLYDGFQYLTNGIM
Sequence of UniProt Q15569 (whole entry, looked up): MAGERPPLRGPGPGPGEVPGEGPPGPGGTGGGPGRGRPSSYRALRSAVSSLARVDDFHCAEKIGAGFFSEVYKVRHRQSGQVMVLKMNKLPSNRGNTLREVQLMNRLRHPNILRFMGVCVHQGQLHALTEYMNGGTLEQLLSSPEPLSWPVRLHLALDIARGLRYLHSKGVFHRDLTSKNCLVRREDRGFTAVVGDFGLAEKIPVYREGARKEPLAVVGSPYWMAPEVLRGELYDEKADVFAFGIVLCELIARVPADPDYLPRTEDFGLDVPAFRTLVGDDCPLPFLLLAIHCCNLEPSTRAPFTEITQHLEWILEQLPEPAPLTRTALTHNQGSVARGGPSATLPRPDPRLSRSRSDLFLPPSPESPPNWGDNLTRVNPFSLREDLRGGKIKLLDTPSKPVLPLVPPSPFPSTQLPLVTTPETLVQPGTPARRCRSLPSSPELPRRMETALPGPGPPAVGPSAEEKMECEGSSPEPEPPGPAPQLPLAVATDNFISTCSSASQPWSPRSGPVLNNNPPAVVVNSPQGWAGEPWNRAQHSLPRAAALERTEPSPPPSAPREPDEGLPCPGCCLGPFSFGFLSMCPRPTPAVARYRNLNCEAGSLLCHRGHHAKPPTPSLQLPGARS
Sequence of UniProt P53355 (whole entry, looked up): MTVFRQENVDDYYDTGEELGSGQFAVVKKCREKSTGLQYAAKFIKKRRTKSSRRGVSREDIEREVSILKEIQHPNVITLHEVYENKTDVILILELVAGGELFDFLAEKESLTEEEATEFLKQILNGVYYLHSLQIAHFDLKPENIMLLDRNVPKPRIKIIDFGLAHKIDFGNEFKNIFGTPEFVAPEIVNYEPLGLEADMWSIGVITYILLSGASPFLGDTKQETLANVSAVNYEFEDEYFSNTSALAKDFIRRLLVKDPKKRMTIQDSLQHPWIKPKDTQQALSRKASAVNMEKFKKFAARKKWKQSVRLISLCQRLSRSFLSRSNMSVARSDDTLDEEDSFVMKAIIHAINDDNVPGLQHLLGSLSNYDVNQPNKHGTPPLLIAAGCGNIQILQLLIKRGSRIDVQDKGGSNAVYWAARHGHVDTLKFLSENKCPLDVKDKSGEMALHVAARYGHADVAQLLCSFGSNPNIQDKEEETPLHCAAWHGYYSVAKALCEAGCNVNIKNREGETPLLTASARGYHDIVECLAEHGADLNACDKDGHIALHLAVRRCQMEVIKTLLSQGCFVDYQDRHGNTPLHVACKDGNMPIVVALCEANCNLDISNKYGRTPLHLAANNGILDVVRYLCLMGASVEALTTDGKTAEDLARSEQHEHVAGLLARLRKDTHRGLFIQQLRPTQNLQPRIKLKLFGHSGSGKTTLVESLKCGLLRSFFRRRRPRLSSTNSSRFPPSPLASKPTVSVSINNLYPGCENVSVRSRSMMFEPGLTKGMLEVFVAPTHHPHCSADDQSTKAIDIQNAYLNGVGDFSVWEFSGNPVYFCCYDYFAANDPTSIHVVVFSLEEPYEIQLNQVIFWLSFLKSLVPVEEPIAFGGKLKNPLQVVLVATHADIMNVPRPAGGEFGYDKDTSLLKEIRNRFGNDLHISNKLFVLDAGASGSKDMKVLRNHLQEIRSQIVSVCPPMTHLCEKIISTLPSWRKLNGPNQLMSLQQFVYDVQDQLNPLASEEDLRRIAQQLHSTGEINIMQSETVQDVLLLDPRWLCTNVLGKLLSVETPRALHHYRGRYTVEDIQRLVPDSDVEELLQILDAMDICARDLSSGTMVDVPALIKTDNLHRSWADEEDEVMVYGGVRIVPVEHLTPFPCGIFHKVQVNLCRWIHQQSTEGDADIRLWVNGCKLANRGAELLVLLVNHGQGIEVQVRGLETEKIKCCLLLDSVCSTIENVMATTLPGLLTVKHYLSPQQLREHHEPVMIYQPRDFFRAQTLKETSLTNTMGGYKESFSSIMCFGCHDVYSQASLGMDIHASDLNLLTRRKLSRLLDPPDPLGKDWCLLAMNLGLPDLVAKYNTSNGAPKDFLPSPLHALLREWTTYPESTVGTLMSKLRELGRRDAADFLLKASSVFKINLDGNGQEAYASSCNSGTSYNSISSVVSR
Sequence of UniProt Q02156 (whole entry, looked up): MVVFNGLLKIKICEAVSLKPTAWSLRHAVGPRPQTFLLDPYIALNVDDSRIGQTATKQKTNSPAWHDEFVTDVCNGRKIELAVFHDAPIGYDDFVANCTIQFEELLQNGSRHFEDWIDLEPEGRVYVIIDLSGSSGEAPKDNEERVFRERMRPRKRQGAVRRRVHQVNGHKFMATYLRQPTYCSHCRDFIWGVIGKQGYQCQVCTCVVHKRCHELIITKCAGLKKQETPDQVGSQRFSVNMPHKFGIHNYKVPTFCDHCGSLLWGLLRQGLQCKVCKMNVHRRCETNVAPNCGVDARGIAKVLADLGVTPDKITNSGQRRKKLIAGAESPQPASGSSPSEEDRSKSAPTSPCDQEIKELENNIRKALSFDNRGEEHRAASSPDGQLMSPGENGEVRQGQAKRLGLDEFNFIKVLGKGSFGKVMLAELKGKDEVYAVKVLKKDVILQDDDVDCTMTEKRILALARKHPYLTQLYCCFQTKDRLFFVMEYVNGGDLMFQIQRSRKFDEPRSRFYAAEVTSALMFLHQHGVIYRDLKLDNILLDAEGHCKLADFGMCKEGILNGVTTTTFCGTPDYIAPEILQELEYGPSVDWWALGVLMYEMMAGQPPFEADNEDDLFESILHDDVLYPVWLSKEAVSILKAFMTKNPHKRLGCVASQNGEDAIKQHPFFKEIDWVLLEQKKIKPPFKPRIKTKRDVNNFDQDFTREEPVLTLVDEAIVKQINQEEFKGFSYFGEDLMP

Block 1
SMILES: CO[C@@H](C)c1c(Nc2ccc([C@@H](N(C)C(=O)C3CCS(=O)(=O)CC3)C(F)(F)F)cc2)cnc2cc(Cl)nn12
Effect on: cell-free assay
Method: competition with immobilised ligand
Tested at: 1 µM
Endpoint: remaining binding
CDK14 (Homo sapiens, UniProt O94921): 99%
PRKCE (Homo sapiens, UniProt Q02156): 94%
BRSK2 (Homo sapiens, UniProt Q8IWQ3): 90%
LRRK2 (Homo sapiens, UniProt Q5S007, G2019S): 100%
DCLK3 (Homo sapiens, UniProt Q9C098): 100%
PKN1 (Homo sapiens, UniProt Q16512): 99%
ERBB3 (Homo sapiens, UniProt P21860): 100%
PI4KB (Homo sapiens, UniProt Q9UBF8): 100%
KIT (Homo sapiens, UniProt P10721, D816V): 99%
Tyrosine-protein kinase JAK1, JH2 (JAK1, Homo sapiens, UniProt P23458): 89%
EGFR (Homo sapiens, UniProt P00533, del747-752/P753S): 100%
TNK2 (Homo sapiens, UniProt Q07912): 84%
TESK1 (Homo sapiens, UniProt Q15569): 83%
CDK11B (Homo sapiens, UniProt P21127): 100%
DAPK1 (Homo sapiens, UniProt P53355): 89%

Block 2
Target: Lymphokine-activated killer T-cell-originated protein kinase (PBK, Homo sapiens, UniProt Q96KB5)
Effect on: enzyme activity
Action: inhibitor
Tested at: 0.5 µM
Baseline: control
Endpoint: remaining activity
Target sequence (Q96KB5 1-322): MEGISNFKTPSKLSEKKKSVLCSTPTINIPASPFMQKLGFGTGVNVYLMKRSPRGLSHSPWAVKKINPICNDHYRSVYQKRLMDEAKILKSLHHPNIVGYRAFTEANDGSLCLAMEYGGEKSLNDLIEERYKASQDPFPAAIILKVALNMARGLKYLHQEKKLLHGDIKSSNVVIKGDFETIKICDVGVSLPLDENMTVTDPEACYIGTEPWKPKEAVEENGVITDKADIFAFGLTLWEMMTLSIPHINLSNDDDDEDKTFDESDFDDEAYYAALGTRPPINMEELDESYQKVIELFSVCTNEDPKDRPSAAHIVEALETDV
O=C1Nc2ccccc2/C1=C\c1c(Cl)[nH]c2ccccc12: 102%
Cc1cc(Nc2cc(N3CCN(C)CC3)nc(Sc3ccc(NC(=O)C4CC4)cc3)n2)[nH]n1: 107%
CCCCc1c(-c2ccc(OC)cc2)[nH]c2nccnc12: 80.6%
COc1ccc(COc2ccc(Cc3cnc(N)nc3N)cc2OC)cc1: 99.4%
CN(C)S(=O)(=O)c1ccc2c(c1)/C(=C/c1cc3c([nH]1)CCCC3)C(=O)N2: 99.7%
O=C(c1cc2cc(O)ccc2[nH]1)c1cc2cc(O)ccc2[nH]1: 100%
O=c1cc(N2CCOCC2)oc2c(-c3ccccc3)cccc12: 110%
CCCNC(=O)Nc1ccc(Oc2ncnc3cc(OC)c(OC)cc23)cc1Cl: 66.2%
COc1ccc2c(c1)c(C1=C(c3c[nH]c4ccccc34)C(=O)NC1=O)cn2CCCN(C)C: 96.8%
O=Nc1c(-c2c(O)[nH]c3cc(Br)ccc23)[nH]c2ccccc12: 109%
CN1CCN(c2ccc3nc(-c4c(N)c5c(F)cccc5[nH]c4=O)[nH]c3c2)CC1: 101%

Block 3
Species: human
Sample: microsomes or S9
Tested at: 2 µM
Time: 0.5 h
Endpoint: remaining compound
Cc1nn2c(nnc3c(=O)n(-c4nnc[nH]4)ccc32)c1-c1ccccc1: 63%
CC(C)Cn1ccnc1NC(=O)c1cnc(C(C)(C)C)s1: 50.6%
Cc1ccc(C2=CC(c3cccc(Cl)c3)n3ncnc3N2)cc1 (centres unmarked): 4.41%
CC(C)(C)c1ccc(Cn2ncc3ccccc32)cc1: 2.6%
O=C(Cn1cnc2c(nnn2-c2cccc(Cl)c2)c1=O)N1CCCc2ccccc21: 27.2%
COc1ccc(CCCNC(=O)c2cnn3cc(Br)cnc23)cc1: 48.9%
CC(C)(C)OC(=O)N1CCCn2c1nn(-c1cc(-c3cccc(C#N)c3)ccc1N)c2=O: 41.7%
Cc1ccc(-c2cc(NC(=O)c3oc4ccc(F)cc4c3C)on2)cc1: 60.3%
O=C(c1ccccc1)c1c[nH]c(C(c2ccccc2)c2ccc(C(c3ccccc3)c3cc(C(=O)c4ccccc4)c[nH]3)o2)c1 (centres unmarked): 47.8%

Block 4
Cell line: mouse MPNST tumor cells
Method: high-content nuclear imaging
Item: cell number
Tested at: 10 µM
Time: 12 h
Notes: mean of 2 replicates
Baseline: plate mean
Reading: higher = more cells
Endpoint: nuclei count
CN1C(C)(C)CCCC1(C)C: 1.36 z-score
COc1cc2ncnc(Nc3ccc(Oc4ccccc4)cc3)c2cc1OC: 8.22 z-score
CC(=O)OCC(=O)[C@@]12N=C(C)O[C@@H]1C[C@H]1[C@@H]3CCC4=CC(=O)C=C[C@]4(C)[C@H]3[C@@H](O)C[C@@]12C: 2.43 z-score
Cc1ccccc1C(=O)c1ccc(Nc2ccc(Br)cc2N)cc1Cl: 1.07 z-score
CCCCCCCCCCC(C)(C)C(=O)Nc1c(OC)cc(OC)cc1OC: 2.24 z-score
O=C(O)c1cccnc1: 0.79 z-score

A few entries again (block 1):
DCLK3 (Homo sapiens, UniProt Q9C098): 100%
CDK11B (Homo sapiens, UniProt P21127): 100%
PRKCE (Homo sapiens, UniProt Q02156): 94%
